Measurements from different studies.
A part holds a random share of what one study measured.

Series 1
Target: Sal-like protein 4, full length isoform B (SALL4, Homo sapiens, UniProt Q9UJQ4-2, residues 1-616)
Technique: universal PBM
Form: double-stranded DNA, one strand shown
Medium: in vitro
Tested at: not given
Notes: 8-mer, flanks averaged, mean of replicates
Reading: higher = stronger binding
`TATGCTCA` gave an E-score of 0.106.
For `GAGTCTCA`, the E-score was -0.144.
For `AGTGTCCG`, the E-score was -0.112.
`TAAATCAA` gave an E-score of 0.338.
`CTCCGGAG` gave an E-score of -0.286.
The E-score of `AGGAGTAT` is reported as 0.0156.
The E-score of `AAGGAAGG` is reported as -0.0658.
`ATTAACGC` gave an E-score of 0.164.
`GACAAAAA` has an E-score of 0.234.
`GTGTGGTA` has an E-score of -0.0577.
`ACTTATTC` has an E-score of 0.247.
The E-score of `CAAAGTTC` is reported as -0.114.
The E-score of `AATCCAGC` is reported as -0.132.
With `CCTAGACA` the E-score was -0.11.
`CTAGTGAA` has an E-score of -0.104.
`AACTCGCC` has an E-score of -0.144.
For `ACAACCTA`, the E-score was -0.0252.

Series 2
Target: Interferon regulatory factor 3, full length, phosphomimetic (IRF3, Homo sapiens, UniProt Q14653, residues 1-427, S386D/S396D/S398D/S402D/T404D/S405D)
Technique: protein-binding microarray
Form: double-stranded DNA, one strand shown
Medium: in vitro
Tested at: 2540 nM top
Notes: 60-bp whole probe
With: salmon DNA 0.4 mg/ml
Relative to: random background probes
Reading: higher = stronger binding
All sequences stand within: GCCTAGCAC … GTCTTGATTCGCTTGACGCTGCTG
Target sequence (chain): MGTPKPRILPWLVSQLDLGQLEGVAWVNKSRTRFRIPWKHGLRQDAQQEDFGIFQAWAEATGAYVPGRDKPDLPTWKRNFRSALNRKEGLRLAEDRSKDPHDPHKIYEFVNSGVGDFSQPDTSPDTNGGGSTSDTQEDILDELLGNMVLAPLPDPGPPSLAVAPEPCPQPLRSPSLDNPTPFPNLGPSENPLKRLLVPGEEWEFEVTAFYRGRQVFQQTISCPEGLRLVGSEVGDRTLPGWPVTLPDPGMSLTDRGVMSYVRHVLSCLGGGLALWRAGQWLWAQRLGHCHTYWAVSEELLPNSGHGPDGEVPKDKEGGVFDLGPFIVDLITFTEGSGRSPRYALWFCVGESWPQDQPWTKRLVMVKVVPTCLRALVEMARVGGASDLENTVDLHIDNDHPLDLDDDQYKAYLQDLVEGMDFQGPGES
For `TTAGGTCTCGGTATCCGTTAGTGCTAG`, “fitted relative affinity” read 2.14 z-score.
`TTACAGCTATTTTTAGGATGGTGCTAG`: “fitted relative affinity” -0.00589 z-score.
`TTAGGACGGCTTATCCTTTAGTGCTAG`: “fitted relative affinity” -0.327 z-score.
Under “fitted relative affinity”, `GACGAACCGAGACTGGAGACGTGCTAG` is recorded as -0.148 z-score.
`TCCTCTCTCTTTCCACTTGTGTGCTAG` — result for “fitted relative affinity”: 1.99 z-score.
For `TTAGGTCTCCTACTGCTTTCGTGCTAG`, “fitted relative affinity” read 0.662 z-score.
`GGCGGTTTCGGGACTGGGGACGTGCTA`: “fitted relative affinity” 4.81 z-score.
`TTAGGCCTGGGTCTCGGTTAGTGCTAG` — result for “fitted relative affinity”: -1.19 z-score.
`TTAGGTAACGGGTATCGGTTAGTGCTA` — result for “fitted relative affinity”: 0.491 z-score.
`TTAGATTTCAAACTGGATTAGTGCTAG`: “fitted relative affinity” 0.744 z-score.
Under “fitted relative affinity”, `GACGGCATCGACTTTCGGGACGTGCTA` is recorded as 0.0428 z-score.
Under “fitted relative affinity”, `TTTTATTTATAAATTATCTTGTGCTAG` is recorded as 1.7 z-score.
`CACGGACTGGACTTTCGGGACGTGCTA`: “fitted relative affinity” 0.201 z-score.
Under “fitted relative affinity”, `GACGATTTGAGTCTCGAGACGTGCTAG` is recorded as 0.142 z-score.
`GACCATCTCAGACTGGAGACGTGCTAG`: “fitted relative affinity” 1.31 z-score.
`TCAGTTCTGCTTTGCCTACTGTGCTAG`: “fitted relative affinity” 1.3 z-score.
For `TCACTTTACTCACTCGGACTGTGCTAG`, “fitted relative affinity” read 1.01 z-score.
Under “fitted relative affinity”, `GACGGTATCGACTTTCGGCACGTGCTA` is recorded as 1.2 z-score.
For `GACGGTATCCTTATACTGACGTGCTAG`, “fitted relative affinity” read 4.41 z-score.

Series 3
Target: RNA binding protein fox-1 homolog 2, RRM domain, GST-SBP tag (RBFOX2, Homo sapiens, UniProt O43251-10, residues 100-194)
Technique: RNA Bind-n-Seq
Form: RNA
Medium: in vitro
Tested at: 365 nM
Notes: natural RNA segment, single round, ends assumed
Relative to: no-protein control
Reading: higher = stronger binding
All sequences stand within: GGGAGUUCUACAGUCCGACGAUC … UGGAAUUCUCGGGUGCCAA
Target sequence (chain): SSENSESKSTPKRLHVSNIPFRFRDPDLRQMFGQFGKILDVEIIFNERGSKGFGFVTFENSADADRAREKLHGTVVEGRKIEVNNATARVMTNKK
`AGAGAGUUAUGCUACAAUUAUUUCUUGGUUUCCACUUGCAAUGGUUAAUUAAGUCCAAAAACAGCUGUCAGAACCUCGAGAGCAGAACAUGAGAAACUCAGAGCUCUGGA`: “RBNS enrichment (R)” 0.634.
Under “RBNS enrichment (R)”, `CCCAGGGCAGAUGCUGCCUUUAUCUUCUAUCAUUUGUAUGACGUGGCUGGAUGGAGUUUCUUUUGUAAGGUGCACAACACAUUCUUGACAAAUGUGAGUCUCCUGAUCAA` is recorded as 0.414.
`CAGCAAAGUAAUUAUGGACCAAUAACUAUGUUCACCCUGAAACUUUUAUGCCACCAAUCACCAAAAAUUGAUACCACAUUCUUUAUUAUAAUGCUUUAUACUUUGCCAGG` — result for “RBNS enrichment (R)”: 0.57.
Under “RBNS enrichment (R)”, `GAUGGUGGAAUCUUUGGGGAAACUUUAAAGUAACUAAUUUUUAUUUAAAAAAAAAAUCUCGGCAGACAUAAGAGAACACAACCCCCCAUGCACAUCUGUAAAUGACUGUA` is recorded as 0.597.
`ACAUGCAGUUUUAAUGGGAAGUGGCUCUGCGCCUAAACGGAGUCCUAACGCUGCAUCAACGGGAGGGAGGGUCCUGAAAGAGACCCAUCUGGGCCUGUCUGAACCCCUCG`: “RBNS enrichment (R)” 0.33.
`UGUACAAGUCAUUCUCUGUUAGGAUUCCUUUCAAUUCUCACUGUCUACAAUGCUCUUCAUGGUCUCAAUGUCUGUGCCAUAAGGGUAGAAAGCUAACAGUCAGUUUUUGC`: “RBNS enrichment (R)” 0.273.
`GGCUUUAAGGUAGCAUGGCUCGAUUGCUGUCGACUUAAUGUUCCACUGCACAGCAAUUCACGGCCAGUGAAUGUUACACACAUCUUGCUAGACUAGUAUAAAAAUCAUUG`: “RBNS enrichment (R)” 0.666.
Under “RBNS enrichment (R)”, `ACCUUCCUCACUUUCUCUUGUCCCGGCUGCCCCUGGGGGCCAGAGAGACCCUUGCCUUCCUUCUGCCCAUCUUCUGAGUUGUAAAGGAACAGCCCUGCGCAGUGGGGCAG` is recorded as 1.03.

Series 4
Target: RING finger protein unkempt homolog, zinc fingers 1-6, GST-SBP tag (UNK, Homo sapiens, UniProt Q9C0B0, residues 30-357)
Technique: RNA Bind-n-Seq
Form: RNA
Medium: in vitro
Tested at: not given
Notes: RNA with constant flanks, human and mouse sites, ends assumed
Relative to: input RNA pool
Reading: higher = stronger binding
All sequences stand within: GGGAGUUCUACAGUCCGACGAUC … CAACAGAGGAUUGAGCAUCA
Target sequence (chain): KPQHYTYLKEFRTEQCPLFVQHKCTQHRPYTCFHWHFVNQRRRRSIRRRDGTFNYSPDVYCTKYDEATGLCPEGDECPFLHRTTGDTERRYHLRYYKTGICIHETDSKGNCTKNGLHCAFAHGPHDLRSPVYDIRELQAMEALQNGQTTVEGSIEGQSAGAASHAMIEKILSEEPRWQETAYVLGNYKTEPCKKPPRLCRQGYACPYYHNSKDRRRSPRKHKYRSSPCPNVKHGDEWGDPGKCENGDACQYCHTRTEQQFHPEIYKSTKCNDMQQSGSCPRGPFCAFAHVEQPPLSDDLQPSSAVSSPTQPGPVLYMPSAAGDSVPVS
With `GUCAUGCCGGGGAUAGUGGAGCUGCCAACUCUGGAAGAGCUGAAAGUGGAGGAGGUGAAAGUCAGCUCAGCUGUGCUUAAAGCUGCCGCCCAUCACUAUGGGGCUCAGUGCGAUAAAACC` the bound/input enrichment was 0.0852 ratio.
The bound/input enrichment of `GAAGAGAAUAAACUCACCUAUACACCCAUUUUUAAUGAAUAUAUCUCCCUGGUAGAGAAGUACAUUGAAGAGCAGUUGCUGGAGCGUAUCCCAGGCUUCAACAUGGCGGCCUUCACAACC` is reported as 2.72 ratio.
`GUUCAGUUGGGGGGUAGACUGCUCAGUGAUAGUGCUUGCCAAGCUCUACCCUUAACUCCUUAGGUUGAACUGUGGCCUUUCCCACAAUCUCCCUCACCCCAAACUAAAACCAAAUCCAAG` has a bound/input enrichment of 0.505 ratio.
The bound/input enrichment of `CAGGGCAUCAUCUCUCGUGCUGUUAGACACCUGUUCAAGAGUAUUGAUGAGAAAAAGACCUCAGCGAUUAAAAACGGGCUGCCCCCUCCUGAAUUCAAAGUGAAUGCCCAGUUCCUAGAG` is reported as 0.22 ratio.
The bound/input enrichment of `UGCACUGUCCCCAGAUUUUUGCAGGCAGAAGAAACAAUGAAGUUAAAUGAAACCACAGAUUUUCAGGAUUUUGAAGGAGAAGAAACUAAUGAAGUUGAACAAUUUGUAAACAAUUCAUUU` is reported as 0.295 ratio.
For `GGUCCUGGCCCCUUACAAGAGAGAUCUCUCUUUGAGAAAAAGAGGGGCGCUCCUCCAAGUAGCAAUAUUGAAGACUUCCAUGGACUCUUACCGAAGGGUUAUCCCCAUCUGUGCUCUAUA`, the bound/input enrichment was 0.485 ratio.
`AUAAGAUAAACCACGUUUUCCUUCUCGUUAUCCCAGGAAUGCCCUAAAGUGCACCCCCUUCCCUGAAUAUUCAUCAGGGACACACAUCUAUCUGUCCAGACCUCUUUUUGUAAAGUACUU` has a bound/input enrichment of 0.379 ratio.
For `CCAAGCACUGGAACACUUCCACCAUCUCUCUCUGCUUAUCAGCAUCCCACCACCUUCAGCAAUAGAAACUUUGCUACCACUUCACCUUUGGUGCUUCAGGAUUCAACUUUUAACACUACA`, the bound/input enrichment was 0.754 ratio.

For quick reference, copied from above (series 1):
For `AGTGTCCG`, the E-score was -0.112.
The E-score of `AGGAGTAT` is reported as 0.0156.
The E-score of `CAAAGTTC` is reported as -0.114.
